Assay results pooled from the literature.
Values joined by “and” are separate records of one study, mostly repeats; a detail may differ. ± marks the error that the study gave.

Cc1ccc2nc(NC(=O)Cn3cc(COc4ccc(/C=N/Nc5cc([N+](=O)[O-])cc([N+](=O)[O-])c5)cc4)nn3)sc2c1  IC50 (normal dermal fibroblasts; cell viability, MTT; 48 h): > 500 µM
COc1nc(Nc2nc(O)c3ccccc3n2)nc2ccc(C)cc12  IC50 (LDR; cell viability, MTS; 4 days): 1.2 µM
CCCCCCCCCCCCCCCCCCOc1c(O)cc(C(=O)O[C@@H]2Cc3c(O)cc(O)cc3O[C@@H]2c2cc(O)c(O)c(O)c2)cc1O  IC50 (A-431; cell growth or viability, CCK-8; 24 h): 94.6 µM
CCN(CC)Cn1nc(-c2ccccc2)cc1-c1ccccc1  IC50 (3T3-L1; cell growth or viability, MTT): 113 µg/mL
C=C(CC)C(=O)c1ccc(OCC(=O)NCCNC(=O)COc2ccc(C(=O)C(=C)CC)c(Cl)c2Cl)c(Cl)c1Cl  IC50 (CoC1; cell growth or viability, CCK-8; 72 h): ~1.2 µM
COc1cccc2c1C(=O)c1c(O)c3c(c(O)c1C2=O)CC(O)(C(CO)=NNC(=O)CCCCC(=O)NNC(=O)CCCc1ccc(I)cc1)CC3OC1CC(N)C(O)C(C)O1 (stereo not shown)  IC50 (mouse KPC pancreatic cancer; cell viability, alamarBlue; 72 h): 2.08 µM
Cn1cc(-c2cc(N3CCCS3(=O)=O)ccc2N[C@H]2CC[C@@](C)(O)CC2)c2cc[nH]c2c1=O  IC50 (Light II cells; GLI reporter gene, inhibitor; Hedgehog pathway): 0.00158 ± 0.00066 µM
O=C(Nc1ccc(Cl)c(-c2nc3ccccc3[nH]2)c1)c1ccc(NC(=O)c2ccccc2Cl)cc1  IC50 (NIH3T3-Gli-Luc; Hedgehog signalling, Gli-luciferase reporter; with: Shh-conditioned medium): 0.25 µM
CC(C)c1ccc(/C=C/C(=O)NC(=O)N[C@@H]2O[C@H](CO)[C@@H](O)[C@H](O)[C@H]2O)cc1  IC50 (L1210, CEM and HeLa; cell growth; range over three cell lines): 16 to 45 µM
C[C@]12CC/C(=N\OCCN3CCOCC3)C=C1CCC1C2CC[C@]2(C)/C(=C/c3ccccn3)CCC12 (stereo partly shown)  IC50 (G-361; cell growth or viability, resazurin; 72 h): 11.4 µM
CO[C@@H]1[C@@H](O[C@@H]2O[C@H](C)[C@@H](O[C@H]3C[C@@](C)(O)[C@@H](OC(=O)CC(C)C)[C@H](C)O3)[C@H](N(C)C)[C@H]2O)[C@@H](CC=O)C[C@@H](C)[C@@H](O[C@H]2CC[C@H](N(C)C)[C@@H](C)O2)/C=C/C=C/C[C@@H](C)OC(=O)C[C@H]1O  IC50 (HGC-27; cell growth or viability, CCK-8; 72 h): 8.08 µM
CCCCC(CC)CNC(=N)NC(=N)NCCC (stereo not shown)  IC50 (NCI-H1299; cell growth or viability, SRB; 72 h): 10.1 µM
Cc1ccc(C(C)C)cc1.Oc1ccccc1C=NNC1=Nc2ccccc2-c2[nH]c3ccc(Br)cc3c2C1.[Cl-].[Cl][Ru+]  IC50 (LNCaP; cell growth or viability, MTT; 96 h): 2.3 µM
CCC(C(=O)O)C1CCC(C)C(C(C)C(O)C(C)C(=O)C(CC)C2OC3(C=CC(NCc4cn(-c5ccc(C(C)=O)cc5)nn4)C4(CCC(C)(C5CCC(O)(CC)C(C)O5)O4)O3)C(C)CC2C)O1 (stereo not shown)  IC50 (HMLER CD24high/CD44low; cell viability, CellTiter-Blue; 72 h): 0.74 ± 0.17 µM
N=C(S)N/N=C/c1ncc(C(F)(F)F)cc1Cl  IC50 (HCC4017; cell growth or viability, MTS; 96 h): 10 µM
Cc1c(C)n(-c2c(C(C)C)cccc2C(C)C)c(=[Se])n1-c1c(C(C)C)cccc1C(C)C.[Cl][Ag]  IC50 (A-431; cell growth or viability, MTT; 72 h): 0.9 µM
CCOc1cc(C(=O)Nc2ccc(Cl)c(-c3nc4ccccc4[nH]3)c2)cc(OCC)c1OCC  IC50 (NIH3T3-Gli-Luc; Hedgehog signalling, Gli-luciferase reporter; with: Shh-conditioned medium): 0.18 ± 0.03 µM
CC(C)(C)/C=C(\C#N)C(=O)Nc1cccc(Oc2nc(Nc3ccc(N4CCN(C(=O)CNc5cccc6c5C(=O)N(C5CCC(=O)NC5=O)C6=O)CC4)cc3)nc3ccoc23)c1 (stereo not shown)  IC50 (MINO; cell growth or viability): ~0.01 µM
CCCC(CCC)C(=O)[O][Pt]([NH2])([NH2])([Cl])([Cl])[O]C(=O)C(Cl)Cl  IC50 (PSN1 3D spheroids): 3.38 ± 0.88 µM
CC(=O)N[C@H]1C(n2cc([C@@](C)(O)c3cccc(F)c3)nn2)O[C@H](COCc2ccccc2)[C@H](OCc2ccccc2)[C@@H]1OCc1ccccc1 (stereo partly shown)  IC50 (SJSA-1; cell growth or viability, MTS; 72 h): 30 µM
C[O][Pt-2]([NH3+])([NH3+])([Cl])([Cl])[O]C(=O)CCC(=O)O  IC50 (CH1; cell growth or viability, MTT; 96 h): 3.8 µM
Oc1c(/N=N/c2ccccn2)ccc2ccccc12  IC50 (HCC4017; cell growth or viability, MTS; 96 h): 6.5 µM
N=C(N/N=C/c1ccccn1)N/N=C/c1ccccn1  IC50 (IMR-90; cell growth or viability, crystal violet; 72 h): 95 µM
C[O][Pt-2]([NH3+])([NH3+])([Cl])([Cl])[O]C(=O)CCC(=O)OCCO  IC50 (CH1; cell growth or viability, MTT; 96 h): 3.2 µM
CC(=O)O[C@@H]1C[C@H]2C(C)(C)[C@H](O)CC[C@]2(C)[C@H]2CC[C@@]3(C)C(=CC[C@H]3[C@@H](C)C[C@@H](O)[C@H](O)C(C)(C)O)[C@@]21C  IC50 (fibroblasts; cytotoxicity, MTT): > 30 µM
CCCCCCC[C@@H](CC(=O)O)OC(=O)C[C@@H](CCCCCCC)O[C@@H]1O[C@@H](C)[C@H](O)[C@@H](O)[C@H]1O  IC50 (H1299; cytotoxicity, xCELLigence; 72 h): 191 ± 17.5 µM
CC(C)N(CCC1CC2CN(Cc3ccc(S(C)(=O)=O)cc3)CC2C1)C[C@H]1O[C@@H](n2cnc3c(N)ncnc32)[C@H](O)[C@@H]1O (stereo partly shown)  IC50 (H460 R231Q; cell proliferation, CCK-8; 72 h): > 100 µM
CC(C)(C)c1cc(=O)n2ncc(-c3ccc(F)cc3)c2[nH]1  IC50 (SW620 organoids; vimentin reporter GFP): 8.5 µM
N=C(N/N=C/c1ccccc1)N/N=C/c1ccccc1  IC50 (IMR-90; cell growth or viability, crystal violet; 72 h): 23.6 µM
CO[C@@H]1[C@@H](O[C@@H]2O[C@H](C)[C@@H](O[C@H]3C[C@@](C)(O)[C@@H](OC(=O)CN(C)C)[C@H](C)O3)[C@H](N(C)C)[C@H]2O)[C@@H](CC=O)C[C@@H](C)[C@@H](O[C@H]2CC[C@H](N(C)C)[C@@H](C)O2)/C=C/C=C/C[C@@H](C)OC(=O)C[C@H]1O  IC50 (HGC-27; cell growth or viability, CCK-8; 72 h): > 50 µM
CC(=O)O[C@@H]1[C@H](OC(C)=O)[C@@H](C)O[C@H]1n1cc(F)c(NC(=O)/C=C/c2ccc(O)c(O)c2)nc1=O  IC50 (BxPC-3; cell viability, MTT; 72 h): 23 µM and 23.2 µM
N=C(N/N=C/c1cncnc1)N/N=C/c1cncnc1  IC50 (IMR-90; cell growth or viability, crystal violet; 72 h): 95.6 µM
COC(=O)[C@H]1[C@H]2C[C@H]3O[C@@]4(CCN3C[C@H]2C[C@@H](OC(=O)c2cc(OC)c(OC)c(OC)c2)[C@@H]1OC)C(=O)Nc1cc(OC)c(-c2ccc(F)cc2)cc14  IC50 (CAPAN-1; cell growth or viability, crystal violet; 72 h): 28.9 µM
CC(C)Oc1ccc(S(=O)(=O)c2ccc(Oc3ccc(C(=O)C(Cl)Cl)cc3[N+](=O)[O-])cc2)cc1  IC50 (NCI-H1299; cell growth or viability, MTT; 72 h): 0.33 to 0.88 µM
CCCC(CCC)C(=O)[O][Pt]([NH2])([NH2])([Cl])([Cl])[O]C(=O)C(C)c1ccc(CC(C)C)cc1 (stereo not shown)  IC50 (PSN1 3D spheroids): 0.93 ± 0.46 µM
CC(C)=CCC1=C([O-])C(=O)c2ccccc2C1=O.CC(C)=CCC1=C([O-])C(=O)c2ccccc2C1=O.[Cu+2].c1ccc(-c2ccccn2)nc1  IC50 (A2780; cell viability, MTT; 24 h): 9.4 ± 3 µM
CCc1nnc(NC(=O)c2cccc(C(=O)Nc3nnc(CC)s3)n2)s1  IC50 (LDR; cell viability, MTS; 4 days): 3.6 µM
C=C(F)C(=O)Nc1cnn2ccc(-c3ccc(C4CCCCC4)cc3)nc12  IC50 (MCF7 TEAD-LUC; TEAD luciferase reporter, inhibitor; 24 h): 0.162 µM
CCCC(=O)Oc1c(C)c(OC)c2c(/C=C/c3ccccc3)c(CC)c(=O)oc2c1C  IC50 (KKU-M213; cell growth or viability, SRB; 72 h): 29.6 µM
Nc1cccc[n+]1Cc1cccc(C[n+]2ccccc2N)c1  IC50 (3T3-L1; cell viability, MTT; 72 h): 56.87 ± 0.24 µM
N=C(N)NCCC[C@H](N)C(=O)N[C@@H](CC(=O)N[C@@H](CC(=O)O)C(=O)O)c1cccc2ccccc12  IC50 (BT-474 (HER2-overexpressing)): > 50 µM
COc1cccc2c1C(=O)c1c(O)c3c(c(O)c1C2=O)CC(O)(C(=O)CO)CC3OC1CC(NC(=O)C[C@H](N)C(=O)O)C(O)C(C)O1 (stereo partly shown)  IC50 (NCI-H1299; cell growth or viability, MTT; 48 h): > 50 µg/mL
CCCCCC(=O)O[C@H]1[C@H](C)O[C@@H](O[C@H]2[C@H](N(C)C)[C@@H](O)[C@H](O[C@H]3[C@@H](CC=O)C[C@@H](C)[C@@H](O[C@H]4CC[C@H](N(C)C)[C@@H](C)O4)/C=C/C=C/C[C@@H](C)OC(=O)C[C@@H](O)[C@@H]3OC)O[C@@H]2C)C[C@@]1(C)O  IC50 (HGC-27; cell growth or viability, CCK-8; 72 h): 5.23 µM
Cn1cc(-c2cc(N3CCCN(CC(F)F)S3(=O)=O)ccc2Oc2ccc(F)cc2F)c2cc[nH]c2c1=O  IC50 (Light II cells; GLI reporter gene, inhibitor; Hedgehog pathway): 0.0289 ± 0.0119 µM
CCN(CC)CCCNC(=O)CSc1c2c(nc3cc(Cl)ccc13)CCCC2  IC50 (LDR; cell viability, MTS; 4 days): 43.5 µM
CO[C@@H]1[C@@H](O[C@@H]2O[C@H](C)[C@@H](O[C@H]3C[C@@](C)(O)[C@@H](OC(=O)CN4CCOCC4)[C@H](C)O3)[C@H](N(C)C)[C@H]2O)[C@@H](CC=O)C[C@@H](C)[C@@H](O[C@H]2CC[C@H](N(C)C)[C@@H](C)O2)/C=C/C=C/C[C@@H](C)OC(=O)C[C@H]1O  IC50 (HGC-27; cell growth or viability, CCK-8; 72 h): 5.78 µM
CC(=O)[O-].Nc1ccc(C([O-])=NN=Cc2ccc(OCC(=O)Nc3ccc(Cl)cc3)cc2)cc1.O.O.O.[Ni+2]  IC50 (WISH; cell growth or viability, MTT; 24 h): 18.3 µg/mL
C[C@]12CC/C(=N\OCCN3CCCCC3)C=C1CCC1C2CC[C@]2(C)/C(=C/c3ccccn3)CCC12 (stereo partly shown)  IC50 (G-361; cell growth or viability, resazurin; 72 h): 4.7 µM
C1=[N+]2CCCC[N+]3=Cc4ccc5[n]4[Au-]23[n]2c1ccc2-c1nc2ccccc2nc1-5.F[P-](F)(F)(F)(F)F  IC50 (NCI60 human cancer panel; mean of all cell lines): 16 µM
COc1ccc2c(C)nc(Nc3nc(O)cc(-c4ccccc4)n3)nc2c1  IC50 (HCC4017; cell growth or viability, MTS; 96 h): 4.5 µM
COc1cc2c(cc1/C(C)=N/N)CCC1C(C)(C)c3nc(C)ncc3C[C@]21C (mixture of isomers)  IC50 (TM3; cell growth or viability, SRB; 24 h): > 100 µM
C(=N\Nc1nc(-c2ccccn2)nc2ccccc12)/c1ccccc1  IC50 (HCC4017; cell growth or viability, MTS; 96 h): 1.35 µM
CCOC(=O)C1=CN([C@@H]2O[C@H](CO)[C@@H](O)[C@H]2O)C=CC1  IC50 (CAPAN-1; cell growth or viability, CCK-8): 46.7 µM
O=[N+]([O-])C(=C\Nc1ccccc1O)/C=N/c1ccccc1O  IC50 (HCC4017; cell growth or viability, MTS; 96 h): 10 µM
COc1ccc(NC(=O)O[C@H]2[C@H](C)O[C@@H](O[C@H]3[C@H](N(C)C)[C@@H](O)[C@H](O[C@H]4[C@@H](CC=O)C[C@@H](C)[C@@H](O[C@H]5CC[C@H](N(C)C)[C@@H](C)O5)/C=C/C=C/C[C@@H](C)OC(=O)C[C@@H](O)[C@@H]4OC)O[C@@H]3C)C[C@@]2(C)O)cc1  IC50 (HGC-27; cell growth or viability, CCK-8; 72 h): > 50 µM

Some of these lines once more:
C[C@]12CC/C(=N\OCCN3CCCCC3)C=C1CCC1C2CC[C@]2(C)/C(=C/c3ccccn3)CCC12 (stereo partly shown)  IC50 (G-361; cell growth or viability, resazurin; 72 h): 4.7 µM
C1=[N+]2CCCC[N+]3=Cc4ccc5[n]4[Au-]23[n]2c1ccc2-c1nc2ccccc2nc1-5.F[P-](F)(F)(F)(F)F  IC50 (NCI60 human cancer panel; mean of all cell lines): 16 µM
COc1ccc2c(C)nc(Nc3nc(O)cc(-c4ccccc4)n3)nc2c1  IC50 (HCC4017; cell growth or viability, MTS; 96 h): 4.5 µM
COc1cc2c(cc1/C(C)=N/N)CCC1C(C)(C)c3nc(C)ncc3C[C@]21C (mixture of isomers)  IC50 (TM3; cell growth or viability, SRB; 24 h): > 100 µM
C(=N\Nc1nc(-c2ccccn2)nc2ccccc12)/c1ccccc1  IC50 (HCC4017; cell growth or viability, MTS; 96 h): 1.35 µM
CCOC(=O)C1=CN([C@@H]2O[C@H](CO)[C@@H](O)[C@H]2O)C=CC1  IC50 (CAPAN-1; cell growth or viability, CCK-8): 46.7 µM
O=[N+]([O-])C(=C\Nc1ccccc1O)/C=N/c1ccccc1O  IC50 (HCC4017; cell growth or viability, MTS; 96 h): 10 µM
